Published values pooled from the literature.
Compare with care: the assays were run in different laboratories. ± gives the spread as reported.

Structure (SMILES)	assay	system	conditions	scale	quantity	value
N=C(N)NCCC[C@@H]1NC(=O)[C@H](CCCCNC(=O)CCOCCOCCOCCOCCNC(=O)CN2CCN(CC(=O)O)CCN(CC(=O)O)CCN(CC(=O)O)CC2)NC(=O)[C@@H](Cc2ccccc2)NC(=O)[C@H](CC(=O)O)NC(=O)CNC1=O [indium-111 labelled]		female athymic nude mice, blood	intravenous, 3 µCi, 0.5 h, U-87 MG glioma xenograft		tissue uptake	7.39 ± 0.78 %ID/g
CSCC[C@H](NC(=O)[C@H](CC(C)C)NC(=O)[C@H](Cc1c[nH]cn1)NC(=O)CNC(=O)[C@@H](NC(=O)[C@H](C)NC(=O)[C@H](Cc1c[nH]c2ccccc12)NC(=O)[C@H](CCC(N)=O)NC(=O)CCCCCNC(=O)CN1CCN(CC(=O)O)CCN(CC(=O)O)CC1)C(C)C)C(N)=O [gallium-68 labelled]	radio-HPLC	fetal bovine serum	0 min, 37 °C		intact parent compound	> 95%
CCCC[C@H](NC(=O)CNC(=O)CNC(=O)c1ccc(NN)nc1)C(=O)N[C@H]1CC(=O)NCCCC[C@@H](C(N)=O)NC(=O)[C@H](Cc2c[nH]c3ccccc23)NC(=O)[C@H](CCCNC(=N)N)NC(=O)[C@@H](Cc2ccccc2)NC(=O)[C@H](Cc2c[nH]cn2)NC1=O [technetium-99m labelled]		C57 mouse, B16/F1 melanoma	2 h, added: NDP-MSH blockade	relative to: tumour over lung	uptake ratio	1.32
CCCC[C@@H](NC(=O)[C@H](Cc1c[nH]c2ccccc12)NC(=O)[C@@H](N)CSC1CC(=O)N(CCCCCC(=O)NN=C(CO)[C@]2(O)Cc3c(O)c4c(c(O)c3[C@@H](O[C@H]3C[C@H](N)[C@H](O)[C@H](C)O3)C2)C(=O)c2c(OC)cccc2C4=O)C1=O)C(=O)N[C@@H](CCC(=O)O)C(=O)N[C@@H](C)C(=O)N[C@@H](C)C(=O)N[C@@H](Cc1ccc(O)cc1)C(=O)N[C@@H](CCC(N)=O)C(=O)N[C@H](CCCNC(=N)N)C(=O)N[C@@H](Cc1ccccc1)C(=O)N[C@@H](CC(C)C)C(N)=O (stereo partly shown)		DMEM/F12 without HEPES	at least 24 h, 37 °C		intact compound	~100%
CCCC[C@H](NC(=O)CCCCCCCNC(=O)c1ccc(NN)nc1)C(=O)N[C@H]1CC(=O)NCCCC[C@@H](C(N)=O)NC(=O)[C@H](Cc2c[nH]c3ccccc23)NC(=O)[C@H](CCCNC(=N)N)NC(=O)[C@@H](Cc2ccccc2)NC(=O)[C@H](Cc2c[nH]cn2)NC1=O [technetium-99m labelled]		C57 mouse, B16/F1 melanoma, bone	intravenous, 4 h		uptake	0.19 ± 0.15 %ID/g
CSCC[C@H](NC(=O)[C@H](CC(C)C)NC(=O)[C@H](Cc1c[nH]cn1)NC(=O)CNC(=O)[C@@H](NC(=O)[C@H](C)NC(=O)[C@H](Cc1c[nH]c2ccccc12)NC(=O)[C@H](CCC(N)=O)NC(=O)CCCCCNC(=O)CNC(=O)CNC(=O)CNC(=O)CSC(C)=O)C(C)C)C(N)=O [technetium-99m labelled]		nude mouse, PC-3 xenograft, stomach	30 min, added: excess unlabelled conjugate		tissue uptake	0.9 ± 0.2 %ID/g
N=C(N)NCCC[C@@H]1NC(=O)[C@H](CCCCNC(=O)CC[C@H](NC(=O)CCOCCOCCOCCOCCNC(=O)CN2CCN(CC(=O)O)CCN(CC(=O)O)CCN(CC(=O)O)CC2)C(=O)NCCCC[C@@H]2NC(=O)[C@@H](Cc3ccccc3)NC(=O)[C@H](CC(=O)O)NC(=O)CNC(=O)[C@H](CCCNC(=N)N)NC2=O)NC(=O)[C@@H](Cc2ccccc2)NC(=O)[C@H](CC(=O)O)NC(=O)CNC1=O [indium-111 labelled]		athymic nude mice, female, U-87 MG glioma xenograft, tumour and kidney	intravenous, 24 h	relative to: tumour over kidney	tumour to tissue ratio	1.1 ± 0.21
CC(C)C[C@H](NC(=O)[C@@H]1CCCN1C(=O)[C@H](CCCCN)NC(=O)[C@@H](N)CO)C(=O)N1CCC[C@H]1C(=O)N[C@@H](CCC(=O)O)C(=O)N[C@H](C(=O)N[C@H](C(=O)N[C@@H](CC(=O)O)C(=O)N[C@@H](CCC(=O)O)C(=O)N[C@@H](Cc1ccc(O)cc1)C(=O)N[C@@H](Cc1cn(CCOCCOCCOCCNC(=O)CCc2ccc(O)c(CN(CCN(CC(=O)O)Cc3cc(CCC(=O)NCCCC[C@H](NC(=O)N[C@@H](CCC(=O)O)C(=O)O)C(=O)O)ccc3O)CC(=O)O)c2)nn1)C(=O)O)[C@@H](C)O)C(C)C [gallium-68 labelled]		NMRI nu/nu mice, LNCaP tumour, kidneys	10 MBq, high molar activity		standardized uptake value	35.8 g/g
CC(C)C[C@@H]1NC(=O)[C@H](C(C)C)NC(=O)[C@H](CO)NC(=O)CNC(=O)CNC(=O)[C@H](CCCNC(=N)N)NC(=O)[C@@H]2CCCN2C(=O)[C@@H](NC(=O)CC[C@H](NC(=O)c2ccc(N(C)Cc3cnc4nc(N)nc(N)c4n3)cc2)C(=O)O)C(C)(C)SSC[C@@H](C(=O)O)NC(=O)CNC(=O)[C@H]([C@@H](C)O)NC(=O)[C@H](C(C)C)NC1=O		phosphate buffer	100 µM, pH 8.0, 70 °C		half-life	224 h
N=C(N)NCCC[C@@H]1NC(=O)[C@H](CCCCNC(=O)CCOCCOCCOCCOCCNC(=O)CC[C@H](NC(=O)CCOCCOCCOCCOCCNC(=O)CC[C@H](NC(=O)CN2CCN(CC(=O)O)CCN(CC(=O)O)CCN(CC(=O)O)CC2)C(=O)NCCOCCOCCOCCOCCC(=O)N[C@@H](CCC(=O)NCCOCCOCCOCCOCCC(=O)NCCCC[C@@H]2NC(=O)[C@@H](Cc3ccccc3)NC(=O)[C@H](CC(=O)O)NC(=O)CNC(=O)[C@H](CCCNC(=N)N)NC2=O)C(=O)NCCOCCOCCOCCOCCC(=O)NCCCC[C@@H]2NC(=O)[C@@H](Cc3ccccc3)NC(=O)[C@H](CC(=O)O)NC(=O)CNC(=O)[C@H](CCCNC(=N)N)NC2=O)C(=O)NCCOCCOCCOCCOCCC(=O)NCCCC[C@@H]2NC(=O)[C@@H](Cc3ccccc3)NC(=O)[C@H](CC(=O)O)NC(=O)CNC(=O)[C@H](CCCNC(=N)N)NC2=O)NC(=O)[C@@H](Cc2ccccc2)NC(=O)[C@H](CC(=O)O)NC(=O)CNC1=O [indium-111 labelled]		athymic nude mice, female, U-87 MG glioma xenograft, tumour and liver	intravenous, 0.5 h	relative to: tumour over liver	tumour to tissue ratio	2.55 ± 0.21
CCCC[C@H](NC(=O)CNC(=O)CNC(=O)CNC(=O)c1ccc(NN)nc1)C(=O)N[C@H]1CC(=O)NCCCC[C@@H](C(N)=O)NC(=O)[C@H](Cc2c[nH]c3ccccc23)NC(=O)[C@H](CCCNC(=N)N)NC(=O)[C@@H](Cc2ccccc2)NC(=O)[C@H](Cc2c[nH]cn2)NC1=O [technetium-99m labelled]		C57 mouse, B16/F1 melanoma, tumor	intravenous, 2 h		uptake	9.78 ± 3.4 %ID/g
C[C@@H](O)[C@H](NC(=O)[C@@H]1CSSC[C@H](NC(=O)[C@@H](Cc2ccccc2)NC(=O)CN2CCCN3CCN(CCCN(CP(=O)(O)O)CC3)CC2)C(=O)N[C@@H](Cc2ccc(O)cc2)C(=O)N[C@H](Cc2c[nH]c3ccccc23)C(=O)N[C@@H](CCCCN)C(=O)N[C@@H]([C@@H](C)O)C(=O)N1)C(=O)O [copper-64 labelled]		Lewis rat, male, tumour-bearing	4 h	relative to: tumour over muscle	tumour-to-tissue ratio	178 ± 56
CC1(C)C(/C=C/C=C/C=C2/N(CCCCCC(=O)NCCCC[C@@H]3NC(=O)[C@@H](Cc4ccc(O)cc4)NC(=O)[C@H](CC(=O)O)NC(=O)CNC(=O)[C@H](CCCNC(=N)N)NC3=O)c3ccccc3C2(C)C)=[N+](CCCCn2nnc3c2-c2ccccc2CN(C(=O)CCC(=O)NCCNC(=O)CN(CCN(CC(=O)O)CC(=O)O)CCN(CC(=O)O)CC(=O)O)c2ccccc2-3)c2ccc(S(=O)(=O)[O-])cc21	shake-flask	1-octanol/PBS	pH 7.4, 99mTc-labelled tracer		log P	-2.55 ± 0.1

A few entries again:
Structure (SMILES)	assay	system	conditions	scale	quantity	value
CC1(C)C(/C=C/C=C/C=C2/N(CCCCCC(=O)NCCCC[C@@H]3NC(=O)[C@@H](Cc4ccc(O)cc4)NC(=O)[C@H](CC(=O)O)NC(=O)CNC(=O)[C@H](CCCNC(=N)N)NC3=O)c3ccccc3C2(C)C)=[N+](CCCCn2nnc3c2-c2ccccc2CN(C(=O)CCC(=O)NCCNC(=O)CN(CCN(CC(=O)O)CC(=O)O)CCN(CC(=O)O)CC(=O)O)c2ccccc2-3)c2ccc(S(=O)(=O)[O-])cc21	shake-flask	1-octanol/PBS	pH 7.4, 99mTc-labelled tracer		log P	-2.55 ± 0.1
